Experimental data from different studies.
Parts stem from different laboratories: compare values within a part only.

Set 1
Target: Histone acetyltransferase KAT6A, winged helix 1, GST fusion (KAT6A, Homo sapiens, UniProt Q92794, residues 1-85)
Technique: protein binding microarray
Form: double-stranded DNA, one strand shown
Sample: in vitro
Tested at: not given
Notes: 8-mer, flanks averaged, mean of 2 arrays, mostly near background
Relative to: not given
Reading: higher = stronger binding
Residues (chain): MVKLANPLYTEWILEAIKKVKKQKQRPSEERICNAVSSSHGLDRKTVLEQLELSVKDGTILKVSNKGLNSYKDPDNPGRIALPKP
Oligonucleotide | E-score
ACTTATAC | -0.0212
TATTAGCA | -0.171
GTGGGGTA | -0.0959

Set 2
Target: Sal-like protein 4, full length isoform B (SALL4, Homo sapiens, UniProt Q9UJQ4-2, residues 1-616)
Technique: universal PBM
Form: double-stranded DNA, one strand shown
Sample: in vitro
Tested at: not given
Notes: 8-mer, flanks averaged, mean of replicates
Reading: higher = stronger binding
Residues (chain): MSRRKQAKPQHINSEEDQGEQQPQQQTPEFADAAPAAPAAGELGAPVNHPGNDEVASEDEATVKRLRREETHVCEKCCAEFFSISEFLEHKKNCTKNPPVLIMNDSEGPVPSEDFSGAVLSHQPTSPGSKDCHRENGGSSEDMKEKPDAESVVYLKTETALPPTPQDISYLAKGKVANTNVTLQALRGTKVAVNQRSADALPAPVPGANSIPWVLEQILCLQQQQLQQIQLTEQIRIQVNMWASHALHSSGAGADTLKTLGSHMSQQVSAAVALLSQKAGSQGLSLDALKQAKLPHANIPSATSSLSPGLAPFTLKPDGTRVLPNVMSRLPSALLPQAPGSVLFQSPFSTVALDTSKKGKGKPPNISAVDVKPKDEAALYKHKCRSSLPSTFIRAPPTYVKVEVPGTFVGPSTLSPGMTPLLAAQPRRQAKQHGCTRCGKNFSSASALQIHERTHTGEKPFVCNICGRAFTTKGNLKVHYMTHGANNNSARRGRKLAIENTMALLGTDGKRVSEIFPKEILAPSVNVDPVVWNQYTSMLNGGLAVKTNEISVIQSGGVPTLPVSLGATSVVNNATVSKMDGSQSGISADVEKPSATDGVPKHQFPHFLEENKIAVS
Oligonucleotide | E-score
GACGAAAA | 0.253
AACTGATC | -0.0959
TATCGAGA | 0.161

Other studies, line by line
CBF1 full length, N-terminal tag: Centromere-binding protein 1, full length, N-terminal tag (CBF1, Saccharomyces cerevisiae, UniProt P17106, residues 1-351)
UniProt P17106, sequence (whole entry, looked up): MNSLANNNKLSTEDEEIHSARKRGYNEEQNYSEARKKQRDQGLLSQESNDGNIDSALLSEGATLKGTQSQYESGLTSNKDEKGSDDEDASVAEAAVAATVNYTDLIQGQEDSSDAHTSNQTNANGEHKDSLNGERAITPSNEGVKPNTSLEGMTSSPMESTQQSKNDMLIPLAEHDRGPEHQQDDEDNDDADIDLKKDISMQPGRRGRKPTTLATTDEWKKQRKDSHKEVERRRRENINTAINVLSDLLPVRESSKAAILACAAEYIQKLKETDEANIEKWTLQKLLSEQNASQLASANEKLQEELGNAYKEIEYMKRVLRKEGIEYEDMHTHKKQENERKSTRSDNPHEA
Molecule | target | assay | test system | conditions | how to read | endpoint | result
CTATTTAATATATTTCTCATGATAGCTCCATAATTCGTCTTGATTCGCTTGACGCTGCTG | CBF1 full length, N-terminal tag | protein-binding microarray | double-stranded DNA, one strand shown, in vitro | 0.8 µM, whole 60-bp probe, no competitor | higher = stronger binding | fluorescence intensity | 502 a.u.
PhoQ, residues 284 288 289 292 302 303 SSTLLI | PhoP, residues 12 14 15 18 19 LHSVQ (Escherichia coli, UniProt P23836) | Sort-seq, item: YFP reporter | E. coli | PhoQ-PhoP variant library, added: 10 µM Mg2+ | relative to: high Mg2+ state, higher = stronger signaling | fold induction | 8.93
GAAACCAATGACTCTCTCGTGAAGCTACTATGGTAGGTCTTGATTCGCTTGACGCTGCTG | CBF1 full length, N-terminal tag | protein-binding microarray | double-stranded DNA, one strand shown, in vitro | 0.8 µM, whole 60-bp probe, no competitor | higher = stronger binding | fluorescence intensity | 518 a.u.

For quick reference, copied from above (other studies, line by line):
Molecule | target | assay | test system | conditions | how to read | endpoint | result
GAAACCAATGACTCTCTCGTGAAGCTACTATGGTAGGTCTTGATTCGCTTGACGCTGCTG | CBF1 full length, N-terminal tag | protein-binding microarray | double-stranded DNA, one strand shown, in vitro | 0.8 µM, whole 60-bp probe, no competitor | higher = stronger binding | fluorescence intensity | 518 a.u.
